Published values from different studies.
Numbered parts are unrelated; each lists some results of a single study.

Series 1
Target: Histone acetyltransferase KAT6A, winged helix 1, GST fusion (KAT6A, Homo sapiens, UniProt Q92794, residues 1-85)
Technique: protein binding microarray
Molecule type: double-stranded DNA, one strand shown
Medium: in vitro
Tested at: not given
Setting: 8-mer, flanks averaged, mean of 2 arrays, mostly near background
Baseline: not given
Reading: higher = stronger binding
Residues (chain): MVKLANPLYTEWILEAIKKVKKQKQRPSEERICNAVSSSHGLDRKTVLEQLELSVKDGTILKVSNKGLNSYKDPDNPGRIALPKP
Sequence | E-score
CGTAGTCA | -0.0763
AAGAGAGG | -0.179
CCTTCTCG | -0.148
TGCGGCCA | 0.136
CCGGTCAC | 0.165
AAAGATAC | -0.0676
GAATCGCA | -0.0135

Series 2
Target: Phosphate system positive regulatory protein PHO4, full length, GST-tagged (PHO4, Saccharomyces cerevisiae, UniProt P07270, residues 1-312)
Technique: competition protein-binding microarray
Molecule type: double-stranded DNA, one strand shown
Medium: in vitro
Tested at: 2 µM
Setting: whole 60-bp probe, lowest competitor level
With: Cbf1 competitor, 0.05 µM
Reading: higher = stronger binding
All sequences stand within: … GTCTTGATTCGCTTGACGCTGCTG
Construct (chain): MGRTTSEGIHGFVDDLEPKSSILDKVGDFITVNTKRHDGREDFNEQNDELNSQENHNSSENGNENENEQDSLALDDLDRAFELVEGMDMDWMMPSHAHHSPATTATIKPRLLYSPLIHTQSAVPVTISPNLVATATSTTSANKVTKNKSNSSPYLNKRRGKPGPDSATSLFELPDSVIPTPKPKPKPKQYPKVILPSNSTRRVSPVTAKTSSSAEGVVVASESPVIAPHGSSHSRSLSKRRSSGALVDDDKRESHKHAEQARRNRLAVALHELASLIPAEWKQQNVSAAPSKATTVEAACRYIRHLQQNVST
Sequence | fluorescence intensity [a.u.]
AAGATTGGACTTCGGCACGGGCCTCGAACTTTCGTT | 9120
TGAGGAGAACGATTGTTCGTGCCAGTGGCAATGGAA | 4790
CGGGGTTAAGTTTGCGTTGTGGGTGGCTTGCAGCAG | 5160
CGGTAACGTCGCACTCACATGAGTTTTCCTGACTTC | 4870
CTCTGCCCTGCTTAGCACGTAGAAGGTCTCCGGCTG | 6300
TTACTTTCTCTCGCGGTTGTGACGGCCTTCAATGAA | 3980

Series 3
Target: Interferon regulatory factor 5, full length, phosphomimetic (IRF5, Homo sapiens, UniProt Q13568-2, residues 1-514, K96S/S451D/S453D/S456D/S462D)
Technique: protein-binding microarray
Molecule type: double-stranded DNA, one strand shown
Medium: in vitro
Tested at: 250 nM
Setting: 60-bp whole probe
With: salmon DNA 0.4 mg/ml
Baseline: random background probes
Reading: higher = stronger binding
All sequences stand within: GCCTAGCAC … GTCTTGATTCGCTTGACGCTGCTG
Sequence | log fluorescence
TTAAGAATGTTTTTCATTGTGTGCTAG | 1.15 z-score
GACGGTATCCTGATCCTGACGTGCTAG | -0.121 z-score
TTACGTTTCGACTTTCGGTTAGTGCTA | 10.7 z-score
TCATATATTATATATACAACTGTGCTA | 1 z-score
TTGGGTCTCGGACTGGGTTAGTGCTAG | -0.322 z-score
TTAGGACAGGACTATCGGTTAGTGCTA | 6.29 z-score

Other studies, line by line
Molecule | target | test | test system | conditions | scale | quantity | value
PhoQ, residues 284 288 289 292 302 303 AQGLTV | PhoP, residues 12 14 15 18 19 LFHKL (Escherichia coli, UniProt P23836) | Sort-seq, refers to: YFP reporter | E. coli | PhoQ-PhoP variant library, with: 10 µM Mg2+ | baseline: high Mg2+ state, higher = stronger signaling | fold induction | 2.46
